Experimental data of several laboratories.
Protocols differ between the studies behind these lines. ± gives the spread as reported.
Organism: Staphylococcus aureus

CN1/C(=C/C=C/c2cc(-c3ccccc3)cc(-c3ccccc3)[o+]2)C(C)(C)c2ccccc21
MIC: 0.5 µg/mL

c1ccc(CN2CCOCCOCCN(CCCCCCCCCCN3CCOCCOCCN(CCCCCCCCCCN4CCOCCOCCN(Cc5ccccc5)CCOCCOCC4)CCOCCOCC3)CCOCCOCC2)cc1
MIC (microbial growth; MRSA USA300; drug-resistant strain): 6 µM

CC(C)=CCc1c(O)ccc2c1O[C@H]1c3cc4c(cc3OC[C@@H]21)OC(C)(C)C=C4
MIC (ATCC 25923): 128 µg/mL

NC[C@@H]1O[C@H](O[C@H]2[C@@H](O)[C@H](O[C@@H]3[C@@H](O)[C@H](N)C[C@H](N)[C@H]3O[C@H]3O[C@H](CO)[C@@H](OCCO)[C@H](O)[C@H]3N)O[C@@H]2CO)[C@H](N)[C@@H](O)[C@@H]1O
MIC (broth microdilution; MRSA isolate AG 045): 16 to 32 µg/mL

O=C1/C(=C(\O)C2CCCCC2)C(=O)[C@@]2(C(=O)OCc3ccc(Br)cc3)CS[C@H](c3ccccc3)N12
MIC (broth dilution; MRSA; with: Fe3+, Ca2+, Mg2+, Zn2+ at blood levels): 0.98 µg/mL

CC(CCCOC(=O)CCC[N+](C)(C)C)C1CCC2C3C(OC(=O)CCC[N+](C)(C)C)CC4CC(OC(=O)CCC[N+](C)(C)C)CCC4(C)C3CC(OC(=O)CCC[N+](C)(C)C)C12C (stereo not shown)
MIC (microbial growth, broth dilution; ATCC29213; 16 h): 31.3 µg/mL

Oc1c(Br)cc(Br)c2nc3cc(C(F)(F)F)ccc3nc12
MIC (broth microdilution; MRSA 1707; 16 h, 37 °C): 0.05 µM

CNC(CC(C)C)C(=O)NC1C(=O)NC(CC(N)=O)C(=O)NC2C(=O)NC3C(=O)NC(C(=O)NC(C(=O)O)c4cc(O)cc(O)c4-c4cc3ccc4O)C(O)c3ccc(c(Cl)c3)Oc3cc2cc(c3OC2OC(CO)C(O)C(O)C2OC2CC(C)(NC(=O)CCCCCCCC[N+](C)(C)Cc3ccccc3)C(O)C(C)O2)Oc2ccc(cc2Cl)C1O (stereo not shown)
MIC (agar dilution; MRSA clinical isolate MRSA3): 64 µg/mL

CN(C)c1cc(CNCc2ccccc2)c(O)c2c1C[C@H]1C[C@H]3[C@H](N(C)C)C(O)=C(C(N)=O)C(=O)[C@@]3(O)C(O)=C1C2=O
MIC (MRSA 5, Tet M, 50% mouse serum): 32 µg/mL

C[n+]1ccc(/C=C2\Sc3ccccc3N2CCCN2CCCC2)c2ccccc21
MIC (microbial growth, broth dilution; ATCC43300 MRSA): 8 µg/mL

CNC(CC(C)C)C(=O)NC1C(=O)NC(CC(N)=O)C(=O)NC2C(=O)NC3C(=O)NC(C(=O)NC(C(=O)O)c4cc(O)cc(O)c4-c4cc3ccc4O)C(O)c3ccc(c(Cl)c3)Oc3cc2cc(c3OC2OC(CO)C(O)C(O)C2OC2CC(C)(NC(=O)CCCC[N+]3(C)CCOCC3)C(O)C(C)O2)Oc2ccc(cc2Cl)C1O (stereo not shown)
MIC (agar dilution; MRSA clinical isolate MRSA3): 512 µg/mL

C=C(NC(=O)C(=C)NC(=O)c1csc(C2=NC3c4csc(n4)C4NC(=O)c5csc(n5)C(C(C)(O)C(C)O)NC(=O)C5CSC(=N5)C(=CC)NC(=O)C(C(C)O)NC(=O)c5csc(n5)C3(CC2)NC(=O)C(C)NC(=O)C(=C)NC(=O)CNC(=O)C(C(C)CC)NC2C=Cc3c(C(C)O)cc(nc3C2O)C(=O)OC4C)n1)C(N)=O (stereo not shown)
MIC (broth microdilution; ATCC 10537 MRSA; 18 h, 37 °C): 0.023 µg/mL

CN(C)c1cc(CN2CCCC2)c(O)c2c1C[C@H]1C[C@H]3[C@H](N(C)C)C(O)=C(C(N)=O)C(=O)[C@@]3(O)C(O)=C1C2=O
MIC (RN4250, Tet K efflux): 2 µg/mL

CCCCCCCCCCCCCCCCCCCCCCSCC1OC(OC2C(N)CC(N)C(OC3OC(CN)C(O)CC3N)C2O)C(O)C(N)C1O (stereo not shown)
MIC (methicillin-resistant): > 150 µg/mL

CCCCCCCCCc1nc2cc(Cl)ccc2c(=O)n1CCN
MIC (RN6390B): 4.4 µg/mL

CN(C)c1cc(CNC2CCCC2)c(O)c2c1C[C@H]1C[C@H]3[C@H](N(C)C)C(O)=C(C(N)=O)C(=O)[C@@]3(O)C(O)=C1C2=O
MIC (MRSA 5, Tet M, 50% mouse serum): 2 µg/mL

CCCCc1ccc(N2C(=O)/C(=N\NC(=N)N)c3cc(C)ccc32)cc1
MIC (microbial growth, broth dilution; 18 h): 3 µg/mL

CN(C)c1cc(CN)c(O)c2c1C[C@H]1C[C@H]3[C@H](N(C)C)C(O)=C(C(N)=O)C(=O)[C@@]3(O)C(O)=C1C2=O
MIC (MRSA 5, Tet M ribosome protection): 32 µg/mL

CCn1cc[n+](CC)[c]1[Au-]([Cl])([Cl])[Cl]
MIC (broth dilution; MRSA DSM 11822; 20 h, 37 °C): 1.6 ± 0.7 µM

CC(C)C[C@H](NC(=O)[C@H](CC(N)=O)NC(=O)[C@H](CCCNC(=N)N)NC(=O)[C@@H](CC(C)C)NC(=O)[C@H](Cc1ccccc1)NC(=O)[C@H](CC(=O)O)NC(=O)[C@H](CCCCN)NC(=O)[C@@H](CC(C)C)NC(=O)[C@H](CCCNC(=N)N)NC(=O)[C@H](CCC(N)=O)NC(=O)[C@@H](NC(=O)[C@@H](CC(C)C)NC(=O)[C@H](CCCNC(=N)N)NC(=O)[C@H](CCCCN)NC(=O)[C@H](Cc1ccccc1)NC(=O)CN)C(C)C)C(=O)N[C@H](C(N)=O)C(C)C
MIC (broth microdilution; USA300 LAC, MRSA): > 100 µM

COCCOC(=O)NCc1cc(N(C)C)c2c(c1O)C(=O)C1=C(O)[C@]3(O)C(=O)C(C(N)=O)=C(O)[C@@H](N(C)C)[C@@H]3C[C@@H]1C2
MIC (microbial growth, broth dilution): 4 µg/mL

C/C(=N\Nc1nc(C)cs1)c1ccc2c(c1)sc1nc(=O)c(C#N)cn12
MIC (microbial growth, broth dilution): < 39 µg/mL

NS(=O)(=O)c1ccc(-n2c(SCC(=O)Nc3ccc([N+](=O)[O-])cc3[N+](=O)[O-])nc3ccccc3c2=O)cc1
MIC (methicillin-resistant; 24 h, 37 °C): 15.6 µg/mL

CO[C@H]1[C@H](O)[C@@H](N)[C@@H](O[C@H]2[C@H](O[C@@H]3O[C@H](CO)[C@@H](O[C@H]4O[C@@H](CN)[C@@H](O)[C@H](O)[C@H]4N)[C@H]3O)[C@@H](O)[C@H](N)C[C@@H]2N)O[C@@H]1CO
MIC (broth microdilution; MRSA isolate AG 039): 32 µg/mL

CCCSC1COC(=O)N1/N=C/c1ccc([N+](=O)[O-])o1 (stereo not shown)
MIC (microbial growth, broth dilution; ATCC29213; 18 h): 12.5 µg/mL

CCN(CC)CCCN1/C(=C/c2cc[n+](C)c3ccccc23)Sc2ccccc21
MIC (microbial growth, broth dilution; ATCCBAA1720 MRSA): 16 µg/mL

O=C1c2ccccc2C(=O)c2c1ccc1c2C(C(=O)Nc2ccc(Br)cc2)C(=O)C1c1ccccc1 (stereo not shown)
MIC (microbial growth): > 100 µg/mL

CN(Cc1cc(N(C)C)c2c(c1O)C(=O)C1=C(O)[C@]3(O)C(=O)C(C(N)=O)=C(O)[C@@H](N(C)C)[C@@H]3C[C@@H]1C2)CC(C)(C)C
MIC (microbial growth; MRSA): 1 µg/mL

CCc1[nH]c(C(=O)N[C@@H]2CCN(c3nnc(C(C)(C)O)s3)C[C@@H]2OC)nc1Cl
MIC (ATCC 29213): 0.5 µg/mL

CN(C)c1cc(CNC(=O)OCC(C)(C)C)c(O)c2c1C[C@H]1C[C@H]3[C@H](N(C)C)C(O)=C(C(N)=O)C(=O)[C@@]3(O)C(O)=C1C2=O
MIC (MRSA 5, Tet M ribosome protection): 4 µg/mL

Oc1ccccc1-c1ccc[nH]1
MIC (microbial growth, broth dilution; NCTC8325; 20 h): 32 µg/mL

A few entries again:
C[n+]1ccc(/C=C2\Sc3ccccc3N2CCCN2CCCC2)c2ccccc21
MIC (microbial growth, broth dilution; ATCC43300 MRSA): 8 µg/mL

CC(C)C[C@H](NC(=O)[C@H](CC(N)=O)NC(=O)[C@H](CCCNC(=N)N)NC(=O)[C@@H](CC(C)C)NC(=O)[C@H](Cc1ccccc1)NC(=O)[C@H](CC(=O)O)NC(=O)[C@H](CCCCN)NC(=O)[C@@H](CC(C)C)NC(=O)[C@H](CCCNC(=N)N)NC(=O)[C@H](CCC(N)=O)NC(=O)[C@@H](NC(=O)[C@@H](CC(C)C)NC(=O)[C@H](CCCNC(=N)N)NC(=O)[C@H](CCCCN)NC(=O)[C@H](Cc1ccccc1)NC(=O)CN)C(C)C)C(=O)N[C@H](C(N)=O)C(C)C
MIC (broth microdilution; USA300 LAC, MRSA): > 100 µM

CCN(CC)CCCN1/C(=C/c2cc[n+](C)c3ccccc23)Sc2ccccc21
MIC (microbial growth, broth dilution; ATCCBAA1720 MRSA): 16 µg/mL

CC(CCCOC(=O)CCC[N+](C)(C)C)C1CCC2C3C(OC(=O)CCC[N+](C)(C)C)CC4CC(OC(=O)CCC[N+](C)(C)C)CCC4(C)C3CC(OC(=O)CCC[N+](C)(C)C)C12C (stereo not shown)
MIC (microbial growth, broth dilution; ATCC29213; 16 h): 31.3 µg/mL

CN(C)c1cc(CNCc2ccccc2)c(O)c2c1C[C@H]1C[C@H]3[C@H](N(C)C)C(O)=C(C(N)=O)C(=O)[C@@]3(O)C(O)=C1C2=O
MIC (MRSA 5, Tet M, 50% mouse serum): 32 µg/mL
